Results collected from several papers.
Lines come from different studies, so protocols differ. Numbers after ± are the reported error.

For `Cc1ccc(C(=O)Nc2ccc(CP(=O)(O)O)cc2CP(=O)(O)O)cc1NC(=O)c1cccc(NC(=O)Nc2cccc(C(=O)Nc3cc(C(=O)Nc4ccc(CP(=O)(O)O)cc4CP(=O)(O)O)ccc3C)c2)c1`, the PT was 16.9 ± 3 s (human plasma; 423 µM).
For `CC(=O)Nc1ccc(OC(=O)CCC(=O)[O][Pt-2]23([O]C(=O)CCC(=O)Oc4ccc(NC(C)=O)cc4)([NH2+][C@@H]4CCCC[C@H]4[NH2+]2)[O]C(=O)C(=O)[O]3)cc1`, “mature dendritic cells” read 59.2% (BALB/c mouse, 4T1 tumour, tumour; dose not given).
Under “enthalpy of activation”, `N[C@@H](CO)C(=O)N1CCC[C@H]1C(=O)NCC(=O)NCC(=O)O` is recorded as 17.2 ± 1.2 kcal/mol (diketopiperazine formation, transition state theory; 1-propanol; concentration not given, 70, 80, 90 °C, 0.5% acetic acid).
With `Cn1c(=O)c(=O)n(C)c2cc(S(=O)(=O)NNC(=S)Nc3ccccc3)ccc21` the blood glucose was 86.3 ± 2.48 mg/dL (IPGTT; HFD/STZ diabetic male albino mice; 10 mg/kg, 3 h).
`Cc1cc2c(cc1C1(c3ncc(C(=O)O)cn3)CC1)C(C)(C)CCC2(C)C`: “log2 fold change” -0.097 (RNA sequencing, refers to: Lyve1; rat, brain; dose not given, 24 h; reference: vehicle).
The oedema reduction of `FC(F)(F)c1ccccc1/N=c1\oc2ccccc2cc1-c1ccccc1` is reported as 42.7 ± 1.6% (rat, formalin paw oedema; intraperitoneal, 10 mg/kg, 4 h).
The GLP-1 release of `O=C1NC(=O)C(C2CCOc3cc(Oc4ccc(C(F)(F)F)cc4Cl)ccc32)S1` (stereo not drawn) is reported as 2.8 ± 0.4 (refers to: total GLP-1; colonic crypt cultures, wild type, mouse, ex vivo; 1 µM, 2 h, unit not given; reference: vehicle).
Under “time in open field centre”, `COc1cc2c(NC3CCN(C(C)C)CC3)cc(N3CCOCC3)nc2cc1OCCCN1CCCC1` is recorded as “no effect” (5xFAD mice; intraperitoneal, 1 mg/kg every 3.5 days, 6 weeks).
Under “tail flick response”, `O=C1CCN(Cc2ccccc2)CC1C(C[N+](=O)[O-])c1ccccc1` (stereo not drawn) is recorded as 63.5% (tail immersion test; BALB/c mice; ip, 50 mg/kg, 1.25 h).
`COc1c2c(cc3oc(C)cc(=O)c13)O[C@H](C(C)(C)O[C@@H]1O[C@H](CO)[C@@H](O)[C@H](O)[C@H]1O)C2` — result for “hot plate latency”: 10.1 ± 1.44 s (analgesia; mouse; oral, 4 mg/kg, 2 h).
For `CC(C)C[C@H](N)C(=O)N1CCC[C@H]1C(=O)NCC(=O)NCC(=O)O`, “enthalpy of activation” read 24.4 ± 1.43 kcal/mol (diketopiperazine formation, transition state theory; 1-propanol; concentration not given, 70, 80, 90 °C, 0.5% acetic acid).
For `FC(F)(F)Oc1ccc(/N=c2\oc3ccccc3cc2-c2ccccc2)cc1`, the oedema reduction was 47.6 ± 3.1% (rat, formalin paw oedema; intraperitoneal, 20 mg/kg, 2 h).
`C=C(c1ncc(C(=O)O)cn1)c1cc2c(cc1C)C(C)(C)CCC2(C)C` — result for “log2 fold change”: -0.65 (RNA sequencing, refers to: Arl11 mRNA; rat, brain; dose not given, 24 h, single dose; reference: vehicle).
Under “ΔS‡ at 298.15 K”, `CC(C)[C@H](N)C(=O)N1CCC[C@H]1C(=O)NCC(=O)NCC(=O)O` is recorded as -45 ± 1 J/(mol·K) (diketopiperazine formation, transition state theory; 1-propanol; 70, 80, 90 °C, 0.5% acetic acid).
For `O=C(OCc1cccc(O)c1O)c1ccc(O)c(CO)c1`, oxidative stress read “inhibited” (DHE fluorescence; C57BL/6J mice, aorta; dose not given, added: angiotensin II infusion).
For `CC[C@H]1[C@@H](O)[C@@H]2[C@H](CC[C@]3(C)[C@@H]([C@H](C)CCOS(=O)(=O)[O-])CC[C@@H]23)[C@@]2(C)CC[C@@H](O)C[C@@H]12.[Na+]`, the liver weight was 9.4 ± 0.2% (ob/ob NASH mouse model; oral, 3 mg/kg once daily, 8 weeks; reference: body weight).
With `COc1ccc(C2CC(c3ccc(C)cc3)=Nc3ccccc3S2)cc1OC` (stereo not drawn) the blood glucose was 103 ± 4.13 mg/dL (oral glucose tolerance test; fasted normal rat, blood; oral, 10 mg/kg, 0 min, added: oral glucose 3 g/kg).
`C=C1C[C@@]23CC[C@H]4[C@@](C)(CCC[C@@]4(C)C(=O)O[C@@H]4O[C@H](CO)[C@@H](O)[C@H](O)[C@H]4O)[C@@H]2CC[C@]1(O[C@@H]1O[C@H](CO[C@H]2O[C@H](CO)[C@@H](O)[C@H](O)[C@H]2O)[C@@H](O)[C@H](O)[C@H]1O[C@@H]1O[C@H](CO)[C@@H](O)[C@H](O)[C@H]1O)C3` — result for “UCP1 protein level”: “increased” (immunoblot; C57BL/6N mice, high-fat diet, brown adipose tissue; drinking water, 0.2 g/L, 16 weeks; reference: control).
`O=C(OCc1ccc(F)cc1)N(Cc1cccc(CN2CCCCC2)c1)[c-]1cccc1.[Fe+2].c1cc[cH-]c1`: “hydroxyl radical generation” 6.8 fold (cell-free; concentration not given, added: H2O2; reference: ferrocene).
Under “ΔS‡ at 298.15 K”, `NC(=O)C[C@H](N)C(=O)N1CCC[C@H]1C(=O)NCC(=O)NCC(=O)O` is recorded as -64 ± 2 J/(mol·K) (diketopiperazine formation, transition state theory; 1-propanol; 70, 80, 90 °C, 0.5% acetic acid).
`Cc1csc(NC(=O)CCN2CCC(O)CC2)n1` — result for “inhibition in vivo”: 27.5% (paw oedema; mouse; intraperitoneal, 200 µmol/kg).
For `C[C@H](NC(=O)COC(=O)[C@H](C)NC(=O)CO)C(=O)O`, “depolymerization rate constant” read 0.001 h⁻¹ (water; pH 2, 25 °C).
For `COc1ccc(C2CC(c3ccc(C)cc3)=Nc3ccccc3S2)cc1` (stereo not drawn), the HDL cholesterol was 55.2 ± 3.67 mg/dL (Wistar rat, STZ-induced diabetes, serum; 20 mg/kg, 28 days).
`CCOC(=O)c1cc2c(N)c(C(=O)OC)sc2nc1C` — result for “time to return to baseline”: 12 h (wild-type mice; subcutaneous, 100 mg/kg).
With `C[C@@H](O)[C@@H]1NC(=O)[C@H](CCCCN)NC(=O)[C@@H](Cc2ccc(NC(N)=O)cc2)NC(=O)[C@H](Cc2ccc(NC(=O)[C@@H]3CC(=O)NC(=O)N3)cc2)NC(=O)[C@H](NC(=O)[C@H](Cc2ccc(Cl)cc2)NC(=O)CN2CCN(CC(=O)O)CCN(CC(=O)O)CCN(CC(=O)O)CC2)CSSC[C@@H](C(=O)N[C@H](Cc2ccc(O)cc2)C(N)=O)NC1=O` [gallium-68 labelled] the SUVpeak was 12 ± 19 (PET/CT; neuroendocrine tumour patients, lymph node lesions; 60 min).
Under “log beta MHL”, `Oc1ccc2nc1CNCCNCCNC2` is recorded as 13 (pH-potentiometric titration; 298 K, I 0.15 M NaCl, added: Ca2+).
For `COc1cc2c(cc1OC)-c1cc3ccc(OC)c(OC)c3c[n+]1CC2`, the HDL cholesterol was 35.4 ± 1.71 mg/dL (rat, STZ-induced diabetic, serum; oral, 12 mg/kg, day 28).

For quick reference, copied from above:
For `C[C@H](NC(=O)COC(=O)[C@H](C)NC(=O)CO)C(=O)O`, “depolymerization rate constant” read 0.001 h⁻¹ (water; pH 2, 25 °C).
With `Cn1c(=O)c(=O)n(C)c2cc(S(=O)(=O)NNC(=S)Nc3ccccc3)ccc21` the blood glucose was 86.3 ± 2.48 mg/dL (IPGTT; HFD/STZ diabetic male albino mice; 10 mg/kg, 3 h).
The oedema reduction of `FC(F)(F)c1ccccc1/N=c1\oc2ccccc2cc1-c1ccccc1` is reported as 42.7 ± 1.6% (rat, formalin paw oedema; intraperitoneal, 10 mg/kg, 4 h).
